Measured values pooled from the literature.
BRD4 BD1: Bromodomain-containing protein 4, BD1 (BRD4, Homo sapiens, UniProt O60885)
TDP1: Tyrosyl-DNA phosphodiesterase 1 (TDP1, Homo sapiens, UniProt Q9NUW8)
Chain of UniProt Q9NUW8 (whole entry, looked up): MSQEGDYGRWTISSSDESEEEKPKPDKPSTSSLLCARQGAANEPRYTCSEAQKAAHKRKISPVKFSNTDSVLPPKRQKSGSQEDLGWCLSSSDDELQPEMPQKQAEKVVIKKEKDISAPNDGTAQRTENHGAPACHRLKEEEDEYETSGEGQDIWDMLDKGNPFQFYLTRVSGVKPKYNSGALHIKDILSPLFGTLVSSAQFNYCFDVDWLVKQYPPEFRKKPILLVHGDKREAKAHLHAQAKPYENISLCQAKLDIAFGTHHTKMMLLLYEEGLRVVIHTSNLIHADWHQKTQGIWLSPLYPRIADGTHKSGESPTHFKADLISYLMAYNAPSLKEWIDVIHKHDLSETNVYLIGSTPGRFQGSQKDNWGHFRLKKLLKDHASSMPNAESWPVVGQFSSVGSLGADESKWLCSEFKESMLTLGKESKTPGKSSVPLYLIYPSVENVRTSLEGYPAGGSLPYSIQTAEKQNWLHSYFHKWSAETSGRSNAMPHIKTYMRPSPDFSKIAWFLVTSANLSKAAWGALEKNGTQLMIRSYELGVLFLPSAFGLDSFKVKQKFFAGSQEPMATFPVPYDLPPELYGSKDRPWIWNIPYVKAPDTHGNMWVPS

SMILES	target	test	system	conditions	quantity	result
O=C1CCCN1c1cccc(NS(=O)(=O)c2cccc(Br)c2)c1	BRD4 BD1	thermal stability, DSF	–	–	ΔTm	-0.84 °C
CC(=O)N1c2ccc(-c3ccc(CNC(=O)c4cn5cc(-c6cnc(N)nc6)nc(N6CCOCC6)c5n4)cc3)cc2CC[C@@H]1C	BRD4 BD1	binding, competition with immobilised ligand	–	10 µM	remaining binding	0%
CCOc1ccc(C(C)=O)cc1NC(=O)c1cccc(C(=O)O)c1	BRD4 BD1	thermal stability, DSF	–	100 µM	ΔTm	0.4 °C
CCn1cc(-c2cccc(C(F)(F)F)c2)c2sc(C(=N)NC3CCS(=O)(=O)CC3)cc2c1=O	BRD4 BD1	–	–	1 µM	inhibition	2.57%
Cc1sc2c(c1C)C(c1ccc(Cl)cc1)=N[C@@H](CC(=O)NCCN(C)CCCCNC(=O)CCCCOc1cccc3c1C(=O)N([C@H]1CCC(=O)NC1=O)C3=O)c1nnc(C)n1-2	Bromodomain-containing protein 4, long isoform (BRD4, Homo sapiens, UniProt O60885)	degrader, Western blot, item: BRD4 long isoform	MV4-11	–	Dmax	89.5%
COc1cc(-c2cn(C)c(=O)c3cnccc23)cc(OC)c1CN(C)C	BRD4 BD1	–	–	–	ΔTm	0.8 °C
O=C1CCCN1c1cccc(NS(=O)(=O)c2cc(Br)ccc2Br)c1	BRD4 BD1	thermal stability, DSF	–	–	ΔTm	-0.91 °C
CC(C)C[C@@H]1NC(=O)[C@H](Cc2ccccc2)NC(=O)CSC[C@@H](C(=O)NCC(N)=O)NC(=O)[C@H](Cc2ccc(O)cc2)NC(=O)[C@H](C(C)C)NC(=O)[C@H](Cc2ccccc2)NC(=O)[C@H](Cc2ccc(O)cc2)NC(=O)[C@H](Cc2ccccc2)NC(=O)[C@H](CC(=O)O)NC(=O)[C@H](CC(N)=O)NC(=O)[C@H](CC(N)=O)NC(=O)[C@H](Cc2ccc(O)cc2)NC(=O)[C@H](C(C)C)NC(=O)[C@H](Cc2ccccc2)NC1=O	BRD4 BD1	thermal stability, DSF	–	200 µM	ΔTm	0.46 °C
COc1cc(C=NOCc2ccc(-c3nc4cc(-c5ccccc5)ccn4c3Nc3ccc(C(=O)O)cc3)cc2)c(O)c(CN2CCOCC2)c1	TDP1	enzyme activity, inhibitor	–	100 µM, unpurified compound	inhibition	32.7%
CC[C@H](C)[C@@H]1NC(=O)[C@H](Cc2ccc(O)cc2)NC(=O)[C@H](Cc2ccccc2)NC(=O)[C@H](C(C)C)NC(=O)[C@H](Cc2ccccc2)NC(=O)CSC[C@@H](C(=O)N[C@@H](Cc2c[nH]cn2)C(N)=O)NC(=O)[C@H](CC(N)=O)NC(=O)[C@H](Cc2c[nH]c3ccccc23)NC1=O	BRD4 BD1	thermal stability, DSF	–	100 µM	ΔTm	0.09 °C
Cn1cc(-c2cc(N3CCCCS3(=O)=O)ccc2N[C@H]2CC[C@H](C)CC2)c2cc[nH]c2c1=O (stereo in doubt)	BRD4 BD1	binding, competition with immobilised ligand	–	1 µM	remaining binding	0.05%
CC(C)C[C@@H]1NC(=O)[C@H](Cc2ccccc2)NC(=O)[C@H](CO)NC(=O)[C@H](Cc2ccccc2)NC(=O)CSC[C@@H](C(=O)N(C)[C@@H](Cc2ccccc2)C(N)=O)NC(=O)[C@H](Cc2c[nH]c3ccccc23)NC(=O)[C@H](Cc2c[nH]cn2)NC(=O)[C@H](Cc2ccc(O)cc2)NC1=O	BRD4 BD1	thermal stability, DSF	–	50 µM	ΔTm	0.22 °C
O=C1CCCN1c1cccc(NS(=O)(=O)c2c(F)cccc2F)c1	BRD4 BD1	thermal stability, DSF	–	–	ΔTm	0.04 °C
O=C(O)c1ccc(Nc2c(-c3ccccc3)nc3ccc(CON=Cc4csc(-c5cccc(Cl)c5)n4)cn23)cc1 (mixture of isomers)	TDP1	enzyme activity, inhibitor	–	100 µM, unpurified compound	inhibition	6.5%
CN(C(=O)[C@@H]1CSCC(=O)N[C@@H](Cc2ccccc2)C(=O)N[C@@H](CO)C(=O)N[C@@H](Cc2ccccc2)C(=O)N[C@@H](Cc2ccc(O)cc2)C(=O)N[C@@H](Cc2ccc(O)cc2)C(=O)N[C@@H](Cc2c[nH]cn2)C(=O)N[C@@H](Cc2c[nH]c3ccccc23)C(=O)N1)[C@@H](Cc1ccccc1)C(N)=O	BRD4 BD1	thermal stability, DSF	–	100 µM	ΔTm	-0.51 °C
